# Results pooled from the literature.
# ± gives the spread as reported.
Molecule,assay,test system,conditions,how to read,measurement,value
COC(=O)c1ccc2c(c1)NC(=O)/C2=C(\Nc1ccc(N(C)C(=O)CN2CCN(C)CC2)cc1)c1ccccc1,,"human mild liver impairment, plasma","oral, 200 mg twice daily, geometric mean",,AUC(tau) steady state,912 ng·h/mL
O=C(O)C(F)(F)c1cc(F)ccc1Nc1c(Cl)cc(F)cc1Cl,,human liver microsomes,"30 min, with: NADPH",,remaining compound,107 ± 3.7%
NC(=O)CN[C@H]1CCCNC1,capillary electrophoresis-MS,water,,,pKa1,5.21
CC(=O)N[C@H](CCNC(=O)c1cc(NC(=O)c2cc(NC(=O)c3cc(NC(=O)c4nccn4C)cn3C)cn2C)cn1C)C(=O)Nc1cn(C)c(C(=O)Nc2cc(C(=O)Nc3cc(C(=O)Nc4cc(C(=O)NCCCN(C)CCCN[14C](=O)c5cccc([14C](=O)O)c5)n(C)c4)n(C)c3)n(C)c2)n1,,"NSG male mouse, LNCaP xenograft, tumour","intraperitoneal, 20 nmol per animal, 24 h after last dose, 3 doses on days 1, 4, 7",,tumour concentration,2.5 µM
Cn1c(-c2ccc(C(N)=O)cc2F)nnc1C(C)(C)Oc1c(F)cc(Cl)cc1F,,"young Japanese adults, plasma","oral, 20 mg single dose, day 1, high-dose multiple-dose study",,Cmax range over subjects,138 to 294 ng/mL
CCCC[C@H](NC(C)=O)C(=O)N[C@H]1CCC(=O)NC[C@@H](C(=O)N[C@@H](Cc2c[nH]c3ccccc23)C(N)=O)NC(=O)[C@H](CCCNC(=N)N)NC(=O)[C@@H](Cc2ccccc2)NC(=O)[C@H](Cc2c[nH]cn2)NC1=O,,"CD Sprague-Dawley rat, female, plasma","subcutaneous, 25.0 mg/kg/day, day 1",,Cmax,782 ng/mL
CS(=O)(=O)n1cc2c(n1)CN([C@H]1CO[C@H](c3cc(F)ccc3F)[C@@H](N)C1)C2,,"healthy male human, plasma","oral, 200 mg single, fasted, geometric mean",,concentration at 168 h,79.5 nM
O=C(CCCCCCC(=O)Nc1ccccc1)NO,,"patients, serum","oral, 800 mg, cycle -1, alone",,AUC(0-7 h),13.9 µM·h
CC(C)NC[C@@H](C(=O)N1CCN(c2ncnc3c2[C@H](C)C[C@H]3O)CC1)c1ccc(Cl)cc1,,"human, Healthy hepatic function, plasma","oral, 100 mg single dose, NCI classification, arithmetic mean",,t1/2,3190 min
CC1=C2C[C@H]3[C@@H](CC[C@@H]4C[C@H](NS(C)(=O)=O)CC[C@@]43C)[C@@H]2CC[C@@]2(C1)O[C@@H]1C[C@H](C)CN[C@H]1[C@H]2C,,"patients, plasma","oral, 200 mg single, day -7, cycle 1",,AUC(0-24),1830 ng·h/mL
COC(=O)c1ccc2c(c1)NC(=O)/C2=C(\Nc1ccc(N(C)C(=O)CN2CCN(C)CC2)cc1)c1ccccc1,,"human, hepatic impairment Child-Pugh B, urine and plasma","oral, 100 mg single dose, geometric mean",,renal clearance (0-72 h),17.6 mL/min
O=C(O)[C@H](c1ccccc1Cl)N1CCc2sccc2C1,HPLC-MS/MS,feline citrate plasma,"72 h, -20 °C, storage stability",,deviation from nominal,8%
C[C@]12CC[C@@H]3c4ccc(O)cc4CC[C@H]3[C@@H]1C[C@@H](O)[C@@H]2O,GC-MS,"breast cancer women on NSAI, serum","vaginal, 0.03 mg daily, 8 h, day 28",,median serum concentration,0.0066 ng/mL
CC(=O)N1CCC[C@H]1C(=O)N[C@@H](CCCNC(=N)N)C(=O)N[C@H](C(=O)N[C@@H](CC(=O)O)C(=O)N[C@H](C(=O)N[C@@H](CCCNC(=N)N)C(=O)N[C@H](C(=O)N[C@@H](CC(=O)O)C(=O)N[C@H](C(N)=O)C(C)C)C(C)C)C(C)C)C(C)C,rotational rheometry,2% w/v aqueous solution,shear rate range 1-1000 s^-1,,viscosity,1550 ± 49.5 Pa·s
CS/C(S)=N/CCCC[S+](C)[O-] (racemic),"RT-PCR, measured: Cyp3a23/1","rat, mammary gland","oral gavage, 200 mg/kg, dosed for four days",baseline: vehicle,mRNA fold change,0.013
C=C(C)[C@@H]1CC[C@]2(NCCN3CCS(=O)(=O)CC3)CC[C@]3(C)[C@H](CC[C@@H]4[C@@]5(C)CC=C(C6=CC[C@@](CF)(C(=O)O)CC6)C(C)(C)[C@@H]5CC[C@]43C)[C@@H]12,,healthy human,"oral, 200 mg, single ascending dose, geometric mean",,t1/2,1360 min
CNc1nc(Nc2ccc(-n3cnc(C)n3)c(OC)c2)nc2c1CC[C@H]2c1ccc(F)cc1,,"human, plasma","oral, 200 mg, 24 h, multiple doses, once daily",,concentration,1150 ng/mL
acyl ghrelin (human),,"mouse, Ghsr knockout, hippocampus","intravenous, 10 min",,brain/serum ratio,4.17 µL/g
NCCCS(=O)(=O)O,,"human, plasma","oral, 100 mg loose-filled capsule, single dose",,terminal elimination rate constant,5.13e-05 ± 2.83e-05 s⁻¹
O=C(/C=C/c1ccc(O)c(O)c1/C=C/c1ccc(O)c(O)c1)O[C@H](Cc1ccc(O)c(O)c1)C(=O)O,UPLC-MS/MS,"Wistar rat, microcirculation dysfunction model, plasma","oral, 100 mg/kg Salvia miltiorrhiza stem-leaf extract FT",,CL/F,33 ± 15.7 mL/min/kg
C/C=C1\NC(=O)[C@H]2CSSCC/C=C/[C@H](CC(=O)N[C@H](C(C)C)C(=O)N2)OC(=O)[C@H](C(C)C)NC1=O,,"advanced cancer patients, plasma","intravenous, 14 mg/m^2, geometric mean, with: rifampin 600 mg",,volume of distribution (Vz),77.6 L
CCCCOCCOc1ccc(-c2ccc3c(c2)/C=C(/C(=O)Nc2ccc([S@@+]([O-])Cc4cncn4CCC)cc2)CCCN3CC(C)C)cc1,,"human, mild hepatic impairment","oral, 150 mg",,effective half-life,822 min
CCOc1ccc(NC(=S)N(CCO)Cc2cc3cc(C)cc(C)c3[nH]c2=O)cc1,,"C57BL/6J mouse, plasma","oral, 3 mg/kg, with: ABT 50 mg/kg oral pretreatment 2 h before",,oral bioavailability,99%
CCCC[C@@H]1NC(=O)[C@@H](NC(=O)[C@H](CCC(=O)O)NC(=O)CNC(=O)CN2CCN(CC(=O)O)CCN(CC(=O)O)CCN(CC(=O)O)CC2)CCCCNC(=O)C[C@@H](C(N)=O)NC(=O)[C@H](C(C)C)NC(=O)[C@@H]2CCCN2C(=O)[C@H](CCCNC(=N)N)NC(=O)CNC(=O)[C@H](Cc2c[nH]c3ccccc23)NC(=O)[C@H](CCCNC(=N)N)NC(=O)[C@@H](Cc2ccccc2)NC(=O)[C@H](Cc2c[nH]cn2)NC(=O)[C@H](CCC(=O)O)NC1=O [indium-111 labelled],,"C57 mice, B16/F10 lung metastatic melanoma, heart","intravenous, 0.037 MBq, 4 h",,tissue uptake,0.03 ± 0.01 %ID/g
CC1(C)C=Cc2c(ccc3c2OC[C@@H](c2ccc(O)cc2O)C3)O1,"glucuronidation, measured: M1 plus M2 formation",cynomolgus monkey liver microsomes,pH 7.4,,total intrinsic clearance,20 µL/min/mg
O=C(Nc1ccc(C(F)(F)F)cc1)c1cc(Cl)cc2nc(C(F)(F)F)[nH]c12,,"NOD/SCID mouse, plasma","oral, 1 mg/kg, 24 h",baseline: IC50 in TOPFlash and MTS,plasma concentration over IC50,3 fold
CCCOc1ccc([C@H]2CNC(=O)N2c2ccc3[nH]cnc3c2)cc1,,"elderly human volunteers fasted, plasma","oral capsule, 300 mg twice daily, day 7, geometric mean",,apparent terminal half-life,377 min
Nc1ccn([C@@H]2O[C@H](CO)[C@@H](O)C2(F)F)c(=O)n1,,"human cancer patients, plasma","intravenous, 1000 mg/m^2, cycle 1 day 1, given alone",,AUC(tau),8800 ng·h/mL
Cc1cc(Nc2cc3ncccc3c(N[C@@H]3C[C@H]4CC[C@@H](C3)N4CCC#N)n2)n[nH]1,,"beagle dog, male, plasma","oral, 10 mg/kg/day, last day of 13 weeks",,Cmax,6.52 ng/mL
O=C(c1cccnc1-c1ccncc1)N1CCC(O)(Cc2ccccc2)CC1,,"healthy human, urine","oral, 100 mg once daily, day 14, arithmetic mean",,renal clearance,3.33 mL/min
CNC(=O)c1ccc(-c2cnc3ncc(Cc4ccc5ncccc5c4)n3n2)cc1F,,"human, severe hepatic impairment (Child-Pugh C), plasma","oral, 200 mg single dose",,half-life (mean),408 min
O=C(Nc1nc2cccc(-c3ccc(CN4CCS(=O)(=O)CC4)cc3)n2n1)C1CC1,,human male,"oral, 50 mg twice daily, steady state, mean",,terminal half-life,345 min
COc1ccccc1C(=O)CSc1nc(C)cc(C)c1C#N,metabolic stability,"human, liver microsomes","0.5 µM, pH 7.4",,microsomal CLint,2030 µL/min/mg
C[C@H]1CNCCCN1S(=O)(=O)c1cccc2cncc(F)c12,,"human, male, plasma","ocular instillation, 1 drop per eye twice daily, day 8, geometric mean, with: brimonidine fixed-dose combination",,AUC(0-τ),0.106 ng·h/mL

# Repeated from above:
Molecule,assay,test system,conditions,how to read,measurement,value
Cc1cc(Nc2cc3ncccc3c(N[C@@H]3C[C@H]4CC[C@@H](C3)N4CCC#N)n2)n[nH]1,,"beagle dog, male, plasma","oral, 10 mg/kg/day, last day of 13 weeks",,Cmax,6.52 ng/mL
COC(=O)c1ccc2c(c1)NC(=O)/C2=C(\Nc1ccc(N(C)C(=O)CN2CCN(C)CC2)cc1)c1ccccc1,,"human mild liver impairment, plasma","oral, 200 mg twice daily, geometric mean",,AUC(tau) steady state,912 ng·h/mL
CCCC[C@H](NC(C)=O)C(=O)N[C@H]1CCC(=O)NC[C@@H](C(=O)N[C@@H](Cc2c[nH]c3ccccc23)C(N)=O)NC(=O)[C@H](CCCNC(=N)N)NC(=O)[C@@H](Cc2ccccc2)NC(=O)[C@H](Cc2c[nH]cn2)NC1=O,,"CD Sprague-Dawley rat, female, plasma","subcutaneous, 25.0 mg/kg/day, day 1",,Cmax,782 ng/mL
